Measurements collected from several papers.
Compare with care: the assays were run in different laboratories. Several values in a cell are separate wells, animals, samples, runs or records. ± marks the error that the study gave.
UCHL1: Ubiquitin carboxyl-terminal hydrolase isozyme L1 (UCHL1, Homo sapiens, UniProt P09936)
UniProt P09936, sequence (whole entry, looked up): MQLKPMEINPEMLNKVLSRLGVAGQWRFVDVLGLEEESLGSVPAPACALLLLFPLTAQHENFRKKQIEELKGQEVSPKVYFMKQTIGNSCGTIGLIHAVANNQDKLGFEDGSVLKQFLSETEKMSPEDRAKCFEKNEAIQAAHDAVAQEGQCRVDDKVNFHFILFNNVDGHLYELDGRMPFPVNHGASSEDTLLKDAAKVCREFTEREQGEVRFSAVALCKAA

Compound	tested on	assay	system	conditions	how to read	measurement	result
O=C(O)/C=C/C=C/C(=O)O	gasdermin E (human)	inhibitor		100 µM, 2 h		inhibition	79.1%
Cc1ccc(Nc2nccc(N(C)c3ccc4c(C)n(C)nc4c3)n2)cc1S(N)(=O)=O	CaMKII (rat)	kinase activity, inhibitor		0.3 µM		inhibition	6%
CCCCCCNc1nc(NC2CCN(C)CC2)c2cc(OC)c(OC)cc2n1	Toxoplasma gondii	parasite growth, luciferase reporter	HFF host cells, tachyzoites	72 h		EC50	2.46 µM
COC(=O)c1cn(C)c2ccc(-c3cccnc3)cc12	Gal4-VP16	reporter gene, Gal4-VP16 control reporter		10 µM	reference: vehicle	activation	0.9 fold
NS(=O)(=O)c1ccc(CNc2ccnc(Nc3cccc(CN4CCOCC4)c3)n2)cc1	403 human wild-type kinases	scanMAX			PoC below 10	number of kinases bound	3
Oc1ccccc1-c1n[nH]cc1-c1ccnc2ccccc12	CMK1 (Candida albicans)	kinase binding, MIB/MS competition	Candida albicans lysate	10 µM	reference: DMSO	log2 fold change	0.4
CCCCCCCC(=O)c1cc(OC)c(OC)c(OC)c1CC(=O)OCC	Gal4-VP16	reporter gene, Gal4-VP16 control reporter		10 µM	reference: vehicle	activation	1.02 fold
O=C(Nc1cccc(Nc2ncc(Br)c(NCCc3cnc[nH]3)n2)c1)N1CCCC1	403 human wild-type kinases	scanMAX binding		1 µM, hit below 10% of control	reference: hits over kinases tested, direction not given	selectivity score S10	0.02
CSc1cc(Oc2ccnc3[nH]c(=O)cnc23)ccc1NC(=O)Nc1cc(C(C)(C)C)nn1-c1ccccc1	Src family kinases	reverse-phase protein array	patient-derived cell	1 µM, 4 h	reference: DMSO	phospho-Src family Tyr416/total ratio	0.26
O=C/C(=C/Cc1ccc(O)cc1)c1ccc(O)cc1	STAT3	reporter gene, inhibitor	NCI-H460			IC50	3.11 µg/mL
Cc1nn(CC(F)(F)F)cc1Nc1ncc(C2CC2)c(NCCCNC(=O)C2CCC2)n1	403 human wild-type kinases	scanMAX			PoC below 10	number of kinases bound	11
OC[C@H]1O[C@@H]2O[C@H]3[C@H](O)[C@@H](O)[C@@H](O[C@H]4[C@H](O)[C@@H](O)[C@@H](O[C@H]5[C@H](O)[C@@H](O)[C@@H](O[C@H]6[C@H](O)[C@@H](O)[C@@H](O[C@H]7[C@H](O)[C@@H](O)[C@@H](O[C@H]8[C@H](O)[C@@H](O)[C@@H](O[C@H]1[C@H](O)[C@H]2O)O[C@@H]8CO)O[C@@H]7CO)O[C@@H]6CO)O[C@@H]5CO)O[C@@H]4CO)O[C@@H]3CO	LuxR	Escherichia coli sensor		40 µM	higher = stronger induction	bioluminescence induction	900 ± 55 RLU
Brc1cnc(Nc2cccc(CN3CCOCC3)c2)nc1NCCc1c[nH]cn1	403 human wild-type kinases	scanMAX			PoC below 10	number of kinases bound	94
CNCc1ccc(-c2cc(-c3nc(-c4ccc(S(=O)(=O)C(C)C)cc4)cnc3N)on2)cc1	CaMKII (rat)	inhibitor		0.4 µM, with: ATP at Km		inhibition	0%
O=C(O)C=Cc1ccc(O)cc1	gasdermin E (human)	inhibitor		100 µM, 2 h		inhibition	78.3%
COCc1nn(Cc2ccc(Cn3ccccc3=O)cc2)cc1C(=O)NCc1cccc(OC)c1F	trypsin					IC50	> 40 µM

Compound	tested on	assay	system	conditions	how to read	measurement	result
O=C(O)CCCOc1cccc(CNC(=O)C#Cc2cn(Cc3ccc(C(=O)O)cc3)c(=O)[nH]c2=O)c1	MMP-8	inhibitor, FRET		10 µM		remaining MMP-8 activity	113 ± 2%
CC(Nc1nc(N2CCCC2)nc2ccccc12)c1ccccc1 (stereo not shown)	transportin-1/2	FUS nuclear import, high content imaging	HeLa Kyoto reporter	10.01 µM, 2 h		cells with nuclear reporter	96.5%
O=C(NCCCNc1ccnc(Nc2cccc(NC(=O)N3CCCC3)c2)n1)C1CCC1	403 human wild-type kinases	scanMAX			PoC below 10	number of kinases bound	3
c1coc(-c2n[nH]cc2-c2ccnc3ccccc23)c1	BUB1 (Candida albicans)	kinase binding, MIB/MS competition	Candida albicans lysate	10 µM	reference: DMSO	log2 fold change	-0.05
CCN1CCN(c2cc(N3CCN(CC)CC3)nc(NCCNc3ccnc4cc(Cl)ccc34)n2)CC1	Gal4-VP16	reporter gene, Gal4-VP16 control reporter		10 µM	reference: vehicle	activation	1.25 ± 0.24 fold
N#CC(=Cc1cccc([N+](=O)[O-])c1)C(=O)NCc1ccc(Cl)cc1	UCHL1	covalent, intact protein LC-MS		12.5 µM		labelling	41.7%
Cc1nn(CC(F)(F)F)cc1Nc1ncc(C2CC2)c(NCCc2c[nH]cn2)n1	403 human wild-type kinases	scanMAX binding		1 µM, hit below 10% of control	reference: hits over kinases tested, direction not given	selectivity score S10	0.005
CC1CCN(c2nc(Cl)nc(Nc3ccc4c(c3)OCO4)n2)CC1	UCHL1	covalent, intact protein LC-MS		12.5 µM		labelling	10.4%
CCCCCCC(C(C)O)n1cnc2c(N)ncnc21 (stereo not shown)	cGMP antibody	acetylated cGMP EIA				EC50	> 1000 µM
NS(=O)(=O)c1ccc(CNc2nc(Nc3cccc(NC(=O)N4CCCC4)c3)ncc2C2CC2)cc1	403 human wild-type kinases	scanMAX binding		1 µM, hit below 10% of control	reference: hits over kinases tested, direction not given	selectivity score S10	0.002
C=CC(=O)N1[C@@H](c2ccc3c(c2)OCO3)c2[nH]c3ccccc3c2C[C@H]1C(=O)NC	PQLC3 Cys135 human	cysteine IA-DTB labelling, covalent inhibitor, MS-ABPP	22Rv1	20 µM, 3 h		inhibition	15% and 6%
[Co+2]	PP2C	enzyme activity		concentration not given		activity class	active
O=C(c1ccc(Nc2nccc(-c3cc4ccccc4s3)n2)cc1)N1CCC(N2CCCC2)CC1	Toxoplasma gondii	parasite growth	HFF, bradyzoite, glutamine-induced			EC50	1.6 µM
Cc1nn(CC(F)(F)F)cc1Nc1nccc(NCCCNC(=O)C2CCC2)n1	403 human wild-type kinases	scanMAX binding		1 µM, hit below 10% of control	reference: hits over kinases tested, direction not given	selectivity score S10	0.002
[Zn+2]	PP2C	enzyme activity		concentration not given		activity class	inactive

A few entries again:
Compound	tested on	assay	system	conditions	how to read	measurement	result
O=C(Nc1cccc(Nc2ncc(Br)c(NCCc3cnc[nH]3)n2)c1)N1CCCC1	403 human wild-type kinases	scanMAX binding		1 µM, hit below 10% of control	reference: hits over kinases tested, direction not given	selectivity score S10	0.02
O=C/C(=C/Cc1ccc(O)cc1)c1ccc(O)cc1	STAT3	reporter gene, inhibitor	NCI-H460			IC50	3.11 µg/mL
Cc1nn(CC(F)(F)F)cc1Nc1ncc(C2CC2)c(NCCCNC(=O)C2CCC2)n1	403 human wild-type kinases	scanMAX			PoC below 10	number of kinases bound	11
